# Results gathered from unrelated publications.
# Compare with care: the assays were run in different laboratories. ± marks the error that the study gave.
# HCRTR1: Orexin/Hypocretin receptor type 1 (HCRTR1, Homo sapiens, UniProt O43613)
# Sequence of UniProt O43613 (whole entry, looked up): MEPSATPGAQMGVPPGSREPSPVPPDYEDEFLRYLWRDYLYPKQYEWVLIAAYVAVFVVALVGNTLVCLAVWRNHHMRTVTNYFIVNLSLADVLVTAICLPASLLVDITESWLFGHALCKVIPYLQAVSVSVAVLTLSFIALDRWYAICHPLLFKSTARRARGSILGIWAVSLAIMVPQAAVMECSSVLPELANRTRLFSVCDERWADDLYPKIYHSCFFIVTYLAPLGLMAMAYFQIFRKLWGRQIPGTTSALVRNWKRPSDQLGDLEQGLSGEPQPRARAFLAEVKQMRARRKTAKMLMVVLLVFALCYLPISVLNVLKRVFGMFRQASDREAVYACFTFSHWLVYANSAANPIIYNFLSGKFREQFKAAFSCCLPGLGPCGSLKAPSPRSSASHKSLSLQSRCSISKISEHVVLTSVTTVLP
# Sequence of UniProt Q07954 (whole entry, looked up): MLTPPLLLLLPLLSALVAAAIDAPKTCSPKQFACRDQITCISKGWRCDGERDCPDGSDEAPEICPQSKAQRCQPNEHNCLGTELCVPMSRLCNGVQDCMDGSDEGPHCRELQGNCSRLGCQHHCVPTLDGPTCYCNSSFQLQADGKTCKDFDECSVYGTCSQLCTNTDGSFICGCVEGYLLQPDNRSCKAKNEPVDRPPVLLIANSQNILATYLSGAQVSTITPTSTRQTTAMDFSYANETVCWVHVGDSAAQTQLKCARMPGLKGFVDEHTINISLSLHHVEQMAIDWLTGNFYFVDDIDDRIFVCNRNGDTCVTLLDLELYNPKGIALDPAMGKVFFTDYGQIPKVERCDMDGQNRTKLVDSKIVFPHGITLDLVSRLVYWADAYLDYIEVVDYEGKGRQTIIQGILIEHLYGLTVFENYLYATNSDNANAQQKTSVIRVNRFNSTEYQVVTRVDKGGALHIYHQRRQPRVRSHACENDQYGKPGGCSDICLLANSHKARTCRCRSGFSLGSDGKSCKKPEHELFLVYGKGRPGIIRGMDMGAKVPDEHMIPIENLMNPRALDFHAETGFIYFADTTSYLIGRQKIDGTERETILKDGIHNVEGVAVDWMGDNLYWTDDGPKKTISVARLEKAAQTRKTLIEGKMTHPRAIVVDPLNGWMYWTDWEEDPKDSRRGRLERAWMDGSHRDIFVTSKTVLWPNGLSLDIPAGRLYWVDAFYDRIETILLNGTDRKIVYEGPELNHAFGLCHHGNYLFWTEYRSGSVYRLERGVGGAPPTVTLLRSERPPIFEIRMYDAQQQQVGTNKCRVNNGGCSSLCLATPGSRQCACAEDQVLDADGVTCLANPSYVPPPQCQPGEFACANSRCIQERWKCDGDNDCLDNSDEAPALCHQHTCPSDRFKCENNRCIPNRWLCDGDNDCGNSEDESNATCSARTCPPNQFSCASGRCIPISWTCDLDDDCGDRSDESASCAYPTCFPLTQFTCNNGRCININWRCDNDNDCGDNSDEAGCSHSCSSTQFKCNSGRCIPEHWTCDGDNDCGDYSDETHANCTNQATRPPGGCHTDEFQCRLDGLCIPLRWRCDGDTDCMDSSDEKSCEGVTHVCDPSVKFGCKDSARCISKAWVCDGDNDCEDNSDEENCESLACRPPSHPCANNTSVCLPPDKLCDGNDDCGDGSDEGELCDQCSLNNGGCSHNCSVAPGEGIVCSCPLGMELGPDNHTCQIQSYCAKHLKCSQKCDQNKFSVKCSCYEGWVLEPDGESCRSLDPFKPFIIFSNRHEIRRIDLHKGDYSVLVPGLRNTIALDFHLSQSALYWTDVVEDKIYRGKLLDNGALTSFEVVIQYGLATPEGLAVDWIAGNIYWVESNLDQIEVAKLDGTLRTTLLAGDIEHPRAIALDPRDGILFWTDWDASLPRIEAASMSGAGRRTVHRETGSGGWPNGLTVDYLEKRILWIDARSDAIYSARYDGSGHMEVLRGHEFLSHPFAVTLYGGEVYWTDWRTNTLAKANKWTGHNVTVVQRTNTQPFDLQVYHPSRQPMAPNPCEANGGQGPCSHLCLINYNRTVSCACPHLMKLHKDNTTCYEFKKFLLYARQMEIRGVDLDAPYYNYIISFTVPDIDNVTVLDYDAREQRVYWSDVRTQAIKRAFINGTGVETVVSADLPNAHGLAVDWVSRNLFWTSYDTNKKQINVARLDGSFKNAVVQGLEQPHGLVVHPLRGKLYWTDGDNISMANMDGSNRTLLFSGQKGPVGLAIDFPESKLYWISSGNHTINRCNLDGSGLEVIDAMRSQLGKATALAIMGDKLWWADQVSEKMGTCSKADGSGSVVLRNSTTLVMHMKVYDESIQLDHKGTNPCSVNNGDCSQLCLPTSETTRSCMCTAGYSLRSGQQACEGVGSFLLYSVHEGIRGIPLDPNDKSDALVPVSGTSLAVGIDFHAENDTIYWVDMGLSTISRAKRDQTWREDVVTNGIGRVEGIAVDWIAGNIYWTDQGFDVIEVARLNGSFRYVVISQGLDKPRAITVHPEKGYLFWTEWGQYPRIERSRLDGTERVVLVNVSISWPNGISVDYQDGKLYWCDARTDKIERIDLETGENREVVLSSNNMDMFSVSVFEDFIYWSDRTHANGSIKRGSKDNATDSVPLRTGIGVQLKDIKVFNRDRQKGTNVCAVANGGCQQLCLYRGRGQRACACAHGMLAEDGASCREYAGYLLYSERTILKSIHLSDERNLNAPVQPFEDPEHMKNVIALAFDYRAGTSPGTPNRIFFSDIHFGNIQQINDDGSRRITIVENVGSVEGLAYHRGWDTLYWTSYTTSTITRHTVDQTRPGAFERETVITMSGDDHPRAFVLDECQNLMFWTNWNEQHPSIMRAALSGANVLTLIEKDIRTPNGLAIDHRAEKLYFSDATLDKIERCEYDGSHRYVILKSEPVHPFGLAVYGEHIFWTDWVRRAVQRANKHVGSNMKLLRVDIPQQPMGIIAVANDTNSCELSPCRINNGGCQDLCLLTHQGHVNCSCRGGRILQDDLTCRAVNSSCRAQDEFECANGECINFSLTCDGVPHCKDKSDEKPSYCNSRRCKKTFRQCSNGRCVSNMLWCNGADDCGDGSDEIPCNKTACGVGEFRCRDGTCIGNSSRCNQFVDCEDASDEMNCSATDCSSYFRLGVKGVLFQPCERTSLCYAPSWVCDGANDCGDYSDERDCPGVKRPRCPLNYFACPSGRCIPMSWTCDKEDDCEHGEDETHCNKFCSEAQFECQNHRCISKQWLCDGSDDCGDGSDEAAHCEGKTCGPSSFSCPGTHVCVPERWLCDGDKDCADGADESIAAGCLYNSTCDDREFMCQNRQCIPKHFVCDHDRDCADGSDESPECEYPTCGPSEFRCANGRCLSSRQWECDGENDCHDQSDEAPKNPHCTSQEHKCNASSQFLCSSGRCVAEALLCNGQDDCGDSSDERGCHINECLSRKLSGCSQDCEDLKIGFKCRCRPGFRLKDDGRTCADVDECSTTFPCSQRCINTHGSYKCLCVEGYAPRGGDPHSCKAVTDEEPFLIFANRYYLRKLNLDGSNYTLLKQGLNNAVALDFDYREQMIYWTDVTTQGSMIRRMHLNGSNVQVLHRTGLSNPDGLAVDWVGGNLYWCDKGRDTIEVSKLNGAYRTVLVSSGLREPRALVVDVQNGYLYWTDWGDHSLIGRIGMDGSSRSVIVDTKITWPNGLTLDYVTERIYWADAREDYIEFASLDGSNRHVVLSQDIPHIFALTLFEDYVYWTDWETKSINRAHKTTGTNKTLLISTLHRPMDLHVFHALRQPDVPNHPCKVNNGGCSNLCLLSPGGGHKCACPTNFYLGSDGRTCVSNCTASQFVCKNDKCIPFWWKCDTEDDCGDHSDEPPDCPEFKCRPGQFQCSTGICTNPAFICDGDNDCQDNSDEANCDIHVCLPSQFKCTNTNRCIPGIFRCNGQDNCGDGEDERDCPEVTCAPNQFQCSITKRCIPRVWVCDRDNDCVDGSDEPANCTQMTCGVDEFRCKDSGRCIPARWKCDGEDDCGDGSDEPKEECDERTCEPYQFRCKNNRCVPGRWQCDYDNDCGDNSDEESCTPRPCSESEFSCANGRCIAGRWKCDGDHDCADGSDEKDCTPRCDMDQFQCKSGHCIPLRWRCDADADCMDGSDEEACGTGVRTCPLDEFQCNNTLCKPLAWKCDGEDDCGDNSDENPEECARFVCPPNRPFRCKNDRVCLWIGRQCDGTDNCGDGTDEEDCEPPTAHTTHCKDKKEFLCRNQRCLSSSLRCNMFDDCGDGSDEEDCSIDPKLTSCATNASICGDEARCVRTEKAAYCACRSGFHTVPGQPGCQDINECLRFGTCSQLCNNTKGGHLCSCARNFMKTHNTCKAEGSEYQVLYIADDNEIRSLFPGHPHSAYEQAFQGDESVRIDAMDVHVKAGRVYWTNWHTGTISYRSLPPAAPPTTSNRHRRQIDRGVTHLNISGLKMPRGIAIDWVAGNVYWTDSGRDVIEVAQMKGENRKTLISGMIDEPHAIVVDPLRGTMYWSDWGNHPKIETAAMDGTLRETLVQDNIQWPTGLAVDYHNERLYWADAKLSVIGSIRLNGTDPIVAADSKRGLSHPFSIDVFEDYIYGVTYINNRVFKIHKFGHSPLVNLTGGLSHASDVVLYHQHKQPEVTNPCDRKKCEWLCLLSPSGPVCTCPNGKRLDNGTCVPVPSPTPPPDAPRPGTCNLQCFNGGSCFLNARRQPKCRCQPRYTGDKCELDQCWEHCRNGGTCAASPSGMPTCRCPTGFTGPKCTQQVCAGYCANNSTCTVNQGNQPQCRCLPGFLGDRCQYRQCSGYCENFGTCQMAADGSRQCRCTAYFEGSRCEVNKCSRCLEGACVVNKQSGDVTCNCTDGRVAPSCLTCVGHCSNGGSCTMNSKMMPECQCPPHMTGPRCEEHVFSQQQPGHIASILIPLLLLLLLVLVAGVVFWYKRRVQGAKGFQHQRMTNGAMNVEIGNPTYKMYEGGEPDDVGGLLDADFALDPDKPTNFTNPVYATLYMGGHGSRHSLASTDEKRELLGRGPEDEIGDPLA
# Sequence of UniProt P62937 (whole entry, looked up): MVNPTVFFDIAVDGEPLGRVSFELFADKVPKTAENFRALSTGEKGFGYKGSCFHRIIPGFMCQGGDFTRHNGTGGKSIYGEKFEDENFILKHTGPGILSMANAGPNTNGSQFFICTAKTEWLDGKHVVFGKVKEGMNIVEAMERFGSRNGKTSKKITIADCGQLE
Substance,target,test,system,conditions,Kd [µM]
COc1ccc(CC2c3cc(OC)c(OC)cc3CCN2CC(=O)N2CCc3ccccc3C2)cc1OC (stereo not shown),HCRTR1,,,,3.03 ± 0.17
CCCCCCCC/C=C\CCCCCCCC(=O)OC[C@H](COP(=O)(O)OCC(O)COP(=O)(O)OC[C@@H](COC(=O)CCCCCCC/C=C\CCCCCCCC)OC(=O)CCCCCCC/C=C\CCCCCCCC)OC(=O)CCCCCCC/C=C\CCCCCCCC (stereo partly shown),"Mitochondrial import inner membrane translocase subunit TIM50, intermembrane space domain (TIM50, Saccharomyces cerevisiae, UniProt Q02776)",liposome cosedimentation,,"pH 7.4, room temperature, POPC liposomes",10.5
COc1ccc(CC2c3cc(OC)c(OC)cc3CCN2CC(=O)OCc2ccccc2)cc1OC (stereo not shown),HCRTR1,,,,> 10
COC(=O)c1cc(Cc2ccc(NC(=O)c3ccccc3)c(C(=O)OC)c2)ccc1NC(=O)c1ccccc1,"Peptidyl-prolyl cis-trans isomerase A (PPIA, Homo sapiens, UniProt P62937)","binding, SPR",,pH 7.4,32.3
[3H]CC1([3H])CCN(c2nc(C(F)(F)F)ccc2CNC(=O)Nc2cccc3c2OCC(=O)N3)CC1,"Transient receptor potential cation channel subfamily V member 1 (TRPV1, Homo sapiens, UniProt Q8NER1)",radioligand binding,,added: PMA 1 µM and cyclosporin A 250 nM,0.000518 ± 6.2e-05
CN(CCOc1ccc(CC2SC(=O)NC2=O)cc1)c1ccccn1 (stereo not shown),"Cytochrome P450 2C8 (CYP2C8, Homo sapiens, UniProt P10632)","binding, equilibrium spectral titration",purified enzyme,"pH 7.4, 25 °C, second site, two-site model, added: 2 µM enzyme",0.22 ± 0.08
6-amino-6-deoxy-GlcNAc,"NACHT, LRR and PYD domains-containing protein 1 (NLRP1, Homo sapiens, UniProt Q9C000)","binding, surface plasmon resonance",,amine derivative tethered to SAM,0.606 ± 0.078
Nc1nc2c(ncn2[C@@H]2O[C@H](COP(=O)(O)OP(=O)(O)OP(=O)(O)O)[C@@H](O)[C@H]2O)c(=O)[nH]1,"parM (Escherichia coli, UniProt P11904)",cell-free assay,,,11.6
COc1ccc(CC2c3cc(OC)c(OC)cc3CCN2CC(=O)NCCCN(C)C)cc1OC (stereo not shown),HCRTR1,,,,> 10
C[C@@H](O)[C@H](NC(=O)[C@H](CC(N)=O)NC(=O)[C@H](CC(N)=O)NC(=O)[C@H](CCCNC(=N)N)NC(=O)[C@@H](N)CC(N)=O)C(=O)NCC(=O)O,"dnaK (Escherichia coli, UniProt P0A6Y8)","peptide binding, surface plasmon resonance",,added: ATP,0.716
Aspartic acid methyl ester,"LRP1, CR5 domain (Homo sapiens, UniProt Q07954)",tryptophan fluorescence titration,,"pH 5.5, CR5 domain, low ionic strength",59000 ± 2000
Nc1nc2c(ncn2[C@H]2C[C@H](O)[C@@H](COP(=O)(O)OP(=O)(O)OP(=O)(O)O)O2)c(=O)[nH]1,"DNA polymerase delta catalytic subunit, with Pol31/Pol32 (POL3, Saccharomyces cerevisiae, UniProt P15436, D321A/E323A)","substrate, pre-steady-state quench flow",,"opposite template C, no PCNA",24 ± 9
COC(=O)[C@@H](N)CCCN=C(N)N,"LRP1, CR3 domain (Homo sapiens, UniProt Q07954)",tryptophan fluorescence titration,,"pH 7.4, 298 K, CR3 domain, ionic strength 0.17",780 ± 40
COc1ccc(CC2c3cc(OC)c(OC)cc3CCN2CC(=O)NC2CCCc3ccccc32)cc1OC (stereo not shown),HCRTR1,,,,0.0411 ± 0.006
COC(=O)[C@@H](N)CCCCN,"LRP1, CR8 domain (Homo sapiens, UniProt Q07954)","binding, tryptophan fluorescence titration",isolated CR8 domain,"pH 7.4, 298 K, ionic strength 0.02",180 ± 10
NC[C@@H]1O[C@H](O[C@H]2[C@@H](O)[C@H](O[C@@H]3[C@@H](O)[C@H](N)C[C@H](N)[C@H]3O[C@H]3O[C@H](CO)[C@@H](O)[C@H](O)[C@H]3N)O[C@@H]2CO)[C@H](N)[C@@H](O)[C@@H]1O,HIV-1 SL4 RNA stem-loop,"binding, ESI-FTMS titration",,pH 7.5,8 ± 1.1

# For quick reference, copied from above:
Substance,target,test,system,conditions,Kd [µM]
COC(=O)[C@@H](N)CCCCN,"LRP1, CR8 domain (Homo sapiens, UniProt Q07954)","binding, tryptophan fluorescence titration",isolated CR8 domain,"pH 7.4, 298 K, ionic strength 0.02",180 ± 10
